Experimental data from different studies.
A part holds a random share of what one study measured.
Sequence of UniProt Q9NRP7 (whole entry, looked up): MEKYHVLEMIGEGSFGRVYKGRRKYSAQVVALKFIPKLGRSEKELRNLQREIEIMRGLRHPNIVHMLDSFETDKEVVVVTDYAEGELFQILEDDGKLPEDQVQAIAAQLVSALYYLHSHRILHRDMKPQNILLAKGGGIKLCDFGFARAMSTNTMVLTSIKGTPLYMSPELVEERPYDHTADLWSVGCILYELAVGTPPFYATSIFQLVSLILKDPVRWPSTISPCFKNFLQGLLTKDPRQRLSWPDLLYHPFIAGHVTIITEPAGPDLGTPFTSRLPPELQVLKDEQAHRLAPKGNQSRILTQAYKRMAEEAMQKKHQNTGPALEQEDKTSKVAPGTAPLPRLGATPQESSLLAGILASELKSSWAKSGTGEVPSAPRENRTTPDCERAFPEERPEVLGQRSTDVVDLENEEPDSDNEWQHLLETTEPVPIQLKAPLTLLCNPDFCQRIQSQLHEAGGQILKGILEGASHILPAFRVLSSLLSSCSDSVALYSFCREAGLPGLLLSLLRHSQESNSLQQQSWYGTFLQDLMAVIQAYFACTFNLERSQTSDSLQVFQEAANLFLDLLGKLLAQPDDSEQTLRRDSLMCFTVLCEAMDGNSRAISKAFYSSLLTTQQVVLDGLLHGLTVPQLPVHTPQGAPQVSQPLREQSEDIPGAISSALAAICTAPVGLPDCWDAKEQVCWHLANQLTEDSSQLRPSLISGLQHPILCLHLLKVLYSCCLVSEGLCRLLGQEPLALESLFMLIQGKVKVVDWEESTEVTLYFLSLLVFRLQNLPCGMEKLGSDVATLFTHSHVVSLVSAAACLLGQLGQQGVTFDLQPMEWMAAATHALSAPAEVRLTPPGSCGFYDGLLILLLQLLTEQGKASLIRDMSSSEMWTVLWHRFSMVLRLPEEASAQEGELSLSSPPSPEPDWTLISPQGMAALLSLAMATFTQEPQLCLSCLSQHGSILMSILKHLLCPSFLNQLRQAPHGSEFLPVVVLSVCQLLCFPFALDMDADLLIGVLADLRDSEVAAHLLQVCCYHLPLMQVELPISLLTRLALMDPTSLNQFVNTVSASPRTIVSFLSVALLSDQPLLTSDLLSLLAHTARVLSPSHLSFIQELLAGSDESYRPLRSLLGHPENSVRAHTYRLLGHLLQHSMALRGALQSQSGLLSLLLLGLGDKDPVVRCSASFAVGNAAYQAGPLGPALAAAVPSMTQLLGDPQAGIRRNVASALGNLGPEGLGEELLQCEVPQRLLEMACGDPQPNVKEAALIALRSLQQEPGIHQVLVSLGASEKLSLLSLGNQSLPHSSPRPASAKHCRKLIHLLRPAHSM
Sequence of UniProt Q9UQ88 (whole entry, looked up): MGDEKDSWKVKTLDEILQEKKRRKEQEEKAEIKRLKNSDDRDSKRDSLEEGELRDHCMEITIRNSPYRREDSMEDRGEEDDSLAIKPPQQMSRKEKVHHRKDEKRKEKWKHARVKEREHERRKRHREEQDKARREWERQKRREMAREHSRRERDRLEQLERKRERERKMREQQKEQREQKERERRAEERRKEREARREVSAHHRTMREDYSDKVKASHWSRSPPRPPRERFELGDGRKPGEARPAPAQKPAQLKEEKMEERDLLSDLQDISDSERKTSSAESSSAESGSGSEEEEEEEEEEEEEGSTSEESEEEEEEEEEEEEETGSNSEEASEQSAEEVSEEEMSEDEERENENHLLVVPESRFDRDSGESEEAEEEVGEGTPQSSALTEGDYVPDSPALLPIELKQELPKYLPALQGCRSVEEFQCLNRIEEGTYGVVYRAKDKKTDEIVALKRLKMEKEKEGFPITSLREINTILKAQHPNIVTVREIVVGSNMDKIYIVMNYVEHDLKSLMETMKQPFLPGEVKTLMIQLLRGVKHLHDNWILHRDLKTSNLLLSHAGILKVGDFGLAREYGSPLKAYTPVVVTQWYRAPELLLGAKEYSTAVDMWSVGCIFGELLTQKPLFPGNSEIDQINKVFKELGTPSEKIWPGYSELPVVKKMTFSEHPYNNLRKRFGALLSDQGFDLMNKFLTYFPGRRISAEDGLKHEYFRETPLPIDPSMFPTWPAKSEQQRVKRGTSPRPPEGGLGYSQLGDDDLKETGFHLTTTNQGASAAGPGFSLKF
Sequence of UniProt Q96SB4 (whole entry, looked up): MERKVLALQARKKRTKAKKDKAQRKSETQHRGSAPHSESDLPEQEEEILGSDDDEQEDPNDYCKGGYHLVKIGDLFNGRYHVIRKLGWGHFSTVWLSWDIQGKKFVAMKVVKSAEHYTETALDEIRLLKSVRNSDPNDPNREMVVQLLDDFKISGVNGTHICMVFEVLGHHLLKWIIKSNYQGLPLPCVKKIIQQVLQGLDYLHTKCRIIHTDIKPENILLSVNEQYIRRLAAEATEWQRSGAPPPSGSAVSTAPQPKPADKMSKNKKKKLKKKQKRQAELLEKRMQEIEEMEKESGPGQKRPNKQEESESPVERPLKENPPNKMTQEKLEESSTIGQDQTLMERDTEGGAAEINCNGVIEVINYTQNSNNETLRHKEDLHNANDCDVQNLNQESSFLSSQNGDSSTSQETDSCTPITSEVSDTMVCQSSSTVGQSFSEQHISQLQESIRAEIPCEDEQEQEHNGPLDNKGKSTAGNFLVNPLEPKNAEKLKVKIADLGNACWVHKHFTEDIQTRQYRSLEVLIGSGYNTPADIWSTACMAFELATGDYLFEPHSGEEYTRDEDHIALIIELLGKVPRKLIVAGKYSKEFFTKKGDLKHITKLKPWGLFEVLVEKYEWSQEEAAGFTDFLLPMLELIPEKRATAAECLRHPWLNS
Sequence of UniProt P08631 (whole entry, looked up): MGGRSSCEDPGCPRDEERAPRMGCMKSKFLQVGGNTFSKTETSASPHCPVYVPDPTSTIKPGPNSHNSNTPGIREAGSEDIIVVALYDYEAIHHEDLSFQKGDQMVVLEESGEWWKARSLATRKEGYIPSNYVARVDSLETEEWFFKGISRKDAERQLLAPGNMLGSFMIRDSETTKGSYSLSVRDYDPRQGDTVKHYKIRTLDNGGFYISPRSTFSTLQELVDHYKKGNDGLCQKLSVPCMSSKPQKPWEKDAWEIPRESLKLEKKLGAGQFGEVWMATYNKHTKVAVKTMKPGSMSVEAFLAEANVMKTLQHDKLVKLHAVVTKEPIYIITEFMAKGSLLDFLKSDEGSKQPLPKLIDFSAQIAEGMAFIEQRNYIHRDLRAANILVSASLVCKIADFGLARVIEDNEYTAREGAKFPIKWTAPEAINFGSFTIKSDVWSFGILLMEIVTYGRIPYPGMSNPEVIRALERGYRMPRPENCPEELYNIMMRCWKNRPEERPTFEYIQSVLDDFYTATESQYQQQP
Sequence of UniProt Q96D53 (whole entry, looked up): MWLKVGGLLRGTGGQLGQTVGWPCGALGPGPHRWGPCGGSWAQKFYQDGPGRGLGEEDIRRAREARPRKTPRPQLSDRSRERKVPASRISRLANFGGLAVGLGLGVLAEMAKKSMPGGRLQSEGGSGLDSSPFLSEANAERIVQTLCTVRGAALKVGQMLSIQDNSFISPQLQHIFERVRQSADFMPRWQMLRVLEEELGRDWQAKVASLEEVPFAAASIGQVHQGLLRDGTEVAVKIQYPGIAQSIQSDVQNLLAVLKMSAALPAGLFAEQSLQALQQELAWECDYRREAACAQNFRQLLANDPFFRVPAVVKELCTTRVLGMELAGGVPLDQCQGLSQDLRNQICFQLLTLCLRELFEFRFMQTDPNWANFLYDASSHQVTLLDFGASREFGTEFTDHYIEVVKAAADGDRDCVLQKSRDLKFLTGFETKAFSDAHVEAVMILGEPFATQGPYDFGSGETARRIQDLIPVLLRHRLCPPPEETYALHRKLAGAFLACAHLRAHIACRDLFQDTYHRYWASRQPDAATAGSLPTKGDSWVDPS
Sequence of UniProt Q86Y07 (whole entry, looked up): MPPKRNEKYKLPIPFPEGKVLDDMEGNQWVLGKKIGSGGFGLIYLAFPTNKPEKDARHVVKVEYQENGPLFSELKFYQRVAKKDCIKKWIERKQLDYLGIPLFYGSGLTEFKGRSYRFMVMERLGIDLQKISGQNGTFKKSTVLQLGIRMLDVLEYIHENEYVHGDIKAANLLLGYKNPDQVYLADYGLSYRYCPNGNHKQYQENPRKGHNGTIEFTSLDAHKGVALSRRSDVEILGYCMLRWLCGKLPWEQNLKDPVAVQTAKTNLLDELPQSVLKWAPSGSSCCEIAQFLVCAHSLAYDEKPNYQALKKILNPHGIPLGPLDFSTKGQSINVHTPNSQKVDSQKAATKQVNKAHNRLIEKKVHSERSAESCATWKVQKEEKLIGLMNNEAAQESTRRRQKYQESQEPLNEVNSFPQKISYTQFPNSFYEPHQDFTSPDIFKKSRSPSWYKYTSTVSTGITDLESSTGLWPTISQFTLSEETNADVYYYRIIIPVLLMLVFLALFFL

Sample 1
Target: Calcium/calmodulin-dependent protein kinase type II subunit alpha (CAMK2A, Homo sapiens, UniProt Q9UQM7)
Sequence of UniProt Q9UQM7 (whole entry, looked up): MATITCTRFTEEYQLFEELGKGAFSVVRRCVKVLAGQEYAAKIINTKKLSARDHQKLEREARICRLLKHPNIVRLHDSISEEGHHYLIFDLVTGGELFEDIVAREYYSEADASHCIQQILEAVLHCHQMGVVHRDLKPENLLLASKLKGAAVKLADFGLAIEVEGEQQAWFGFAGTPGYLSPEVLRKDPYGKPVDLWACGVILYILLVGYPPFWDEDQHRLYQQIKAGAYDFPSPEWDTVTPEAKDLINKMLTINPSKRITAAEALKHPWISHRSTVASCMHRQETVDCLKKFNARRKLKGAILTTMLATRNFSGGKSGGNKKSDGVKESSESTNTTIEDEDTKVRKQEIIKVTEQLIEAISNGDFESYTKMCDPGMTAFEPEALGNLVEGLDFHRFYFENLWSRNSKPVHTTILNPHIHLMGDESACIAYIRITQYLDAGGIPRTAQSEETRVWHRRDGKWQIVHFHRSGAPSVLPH
Read-out: enzyme activity
Mode: inhibitor
Tested at: 10 µM
SMILES	inhibition [%]
CC(=O)N(CC(O)CO)c1c(I)c(C(=O)NCCO)c(I)c(C(=O)NCC(O)CO)c1I (stereo not drawn)	-3
O=c1c2cc(O[C@@H]3O[C@H](CO)[C@@H](O)[C@H](O)[C@H]3O)c(O)cc2oc2cc(O)c([C@@H]3O[C@H](CO)[C@@H](O)[C@H](O)[C@H]3O)c(O)c12	-2
COc1ccc([C@@H]2COc3cc(O[C@@H]4O[C@H](CO)[C@@H](O)[C@H](O)[C@H]4O)ccc3C2)c(O)c1OC	22
CC1(C)CC[C@]2(C(=O)O)CC[C@]3(C)C(=CC[C@@H]4[C@@]5(C)C[C@H](O)[C@H](O)[C@@](C)(CO)[C@@H]5CC[C@]43C)[C@@H]2C1	15
O=C(O)c1c(Cl)c(Cl)c(Cl)c(Cl)c1-c1c2cc(I)c(=O)c(I)c-2oc2c(I)c(O)c(I)cc12	26
COc1cc(O)c2c(=O)cc(-c3ccc(O)c(O)c3)oc2c1	-44
O=C(O)C(CO)c1ccccc1 (stereo not drawn)	3
CC(C)=CCC[C@](C)(O[C@@H]1O[C@H](CO[C@@H]2OC[C@H](O)[C@H](O)[C@H]2O)[C@@H](O)[C@H](O)[C@H]1O)[C@H]1CC[C@]2(C)[C@@H]1[C@H](O)C[C@@H]1[C@@]3(C)CC[C@H](O[C@@H]4O[C@H](CO)[C@@H](O)[C@H](O)[C@H]4O[C@@H]4O[C@H](CO)[C@@H](O)[C@H](O)[C@H]4O)C(C)(C)[C@@H]3CC[C@]12C	21
COc1ccc(/C=C/c2cc(OC)cc(=O)o2)cc1	2

Sample 2
Medium: 1,9-decadiene/PBS
pH: 7.4
Compound	logD
CC(C)C[C@@H]1NC(=O)[C@H](CC(C)C)NC(=O)[C@H](CC(C)C)NC(=O)[C@H](C(C)C)NC(=O)[C@@H](Cc2cscn2)NC(=O)[C@H](C)NC(=O)[C@H](CCC(=O)N2CCCC2)NC1=O	-2.08
CC(C)C[C@@H]1NC(=O)[C@H](C(C)C)NC(=O)[C@H](CCC(=O)N2CCCC2)NC(=O)[C@H](CC(C)C)NC(=O)[C@@H](Cc2cscn2)NC(=O)[C@H](CC(C)C)NC(=O)[C@@H](CC(C)C)NC1=O	-0.849
CC(C)C[C@@H]1NC(=O)[C@H](C)NC(=O)[C@H](Cc2cscn2)NC(=O)[C@@H](CC(C)C)NC(=O)[C@@H](CCC(=O)N2CCCC2)NC(=O)[C@H](CC(C)C)NC(=O)[C@@H](CC(C)C)NC1=O	-1.2
CC(C)C[C@@H]1NC(=O)[C@H](C(C)C)NC(=O)[C@H](C)NC(=O)[C@@H](CC(C)C)NC(=O)[C@H](C(C)C)NC(=O)[C@H](CC(C)C)NC(=O)[C@@H](CC(C)C)NC1=O	0.585
CC(C)C[C@@H]1NC(=O)[C@H](CCC(=O)N2CCCC2)NC(=O)[C@H](CCC(=O)N2CCCC2)NC(=O)[C@@H](CCC(=O)N2CCCC2)NC(=O)[C@H](CC(C)C)NC(=O)[C@@H](CC(C)C)NC(=O)[C@H](CC(C)C)NC1=O	-2.01
CC(C)C[C@@H]1NC(=O)[C@H](CC(C)C)NC(=O)[C@@H](C(C)C)NC(=O)[C@H](C)NC(=O)[C@@H](Cc2cscn2)NC(=O)[C@H](C)NC(=O)[C@H](CCC(=O)N2CCCC2)NC1=O	-3.48
CC(C)C[C@@H]1NC(=O)[C@H](C)NC(=O)[C@H](CC(C)C)NC(=O)[C@@H](CCC(=O)N2CCCC2)NC(=O)[C@H](CC(C)C)NC(=O)[C@@H](CC(C)C)NC(=O)[C@H](CC(C)C)NC1=O	-0.636

Sample 3
Species: mouse
Medium: microsomes or S9
Tested at: 2 µM
Time: 0.5 h
Structure (SMILES)	remaining compound [%]
O=C(Cn1cnc2ccccc2c1=O)NCCn1ccc2cc(Br)ccc21	0.61
COc1ccc(C2c3cccn3-c3sc4c(c3CN2C(=O)NCc2ccc(F)cc2)CCCC4)cc1 (stereo not drawn)	< 1
OC(Cn1ccnc1)c1ccc(Cl)cc1Cl (stereo not drawn)	70.5
CC1CCCC(=O)CCC/C=C/c2cc3c(c(O)c2C(=O)O1)C(c1ccc(OCC(N)=O)cc1)CC(=O)O3 (stereo not drawn)	8.26
CC(C)COc1cc(=O)n2c(c1C(=O)N1CCN(c3ccccn3)CC1)CCCCC2	4.64
CC(CO)Oc1cc(-n2nc3c(c2Cl)CCCC3)c(F)cc1Cl (stereo not drawn)	0.155

Sample 4
Structure (SMILES): CNCc1ccccc1-c1csc([C@@H](C)Nc2nc(C)nc3cc(OC)c(OC)cc23)c1
Read-out: cell-free assay
Method: competition with immobilised ligand
Tested at: 1 µM
target	remaining binding
WNK1 (Homo sapiens, UniProt Q9H4A3)	88%
STK36 (Homo sapiens, UniProt Q9NRP7)	100%
GSK3A (Homo sapiens, UniProt P49840)	100%
MET (Homo sapiens, UniProt P08581, M1250T)	79%
Tyrosine-protein kinase ABL1, phosphorylated (ABL1, Homo sapiens, UniProt P00519, Y253F)	94%
MKNK1 (Homo sapiens, UniProt Q9BUB5)	83%
VRK2 (Homo sapiens, UniProt Q86Y07)	89%
CDK11A (Homo sapiens, UniProt Q9UQ88)	91%
SRPK1 (Homo sapiens, UniProt Q96SB4)	90%
HCK (Homo sapiens, UniProt P08631)	97%
EGFR (Homo sapiens, UniProt P00533, L858R/T790M)	93%
PIK3CG (Homo sapiens, UniProt P48736)	67%
ERBB4 (Homo sapiens, UniProt Q15303)	97%
COQ8B (Homo sapiens, UniProt Q96D53)	65%

Some of these lines once more (sample 3):
Structure (SMILES)	remaining compound [%]
CC(C)COc1cc(=O)n2c(c1C(=O)N1CCN(c3ccccn3)CC1)CCCCC2	4.64
CC1CCCC(=O)CCC/C=C/c2cc3c(c(O)c2C(=O)O1)C(c1ccc(OCC(N)=O)cc1)CC(=O)O3 (stereo not drawn)	8.26
COc1ccc(C2c3cccn3-c3sc4c(c3CN2C(=O)NCc2ccc(F)cc2)CCCC4)cc1 (stereo not drawn)	< 1
O=C(Cn1cnc2ccccc2c1=O)NCCn1ccc2cc(Br)ccc21	0.61
OC(Cn1ccnc1)c1ccc(Cl)cc1Cl (stereo not drawn)	70.5
